# Results of several laboratories.
# Numbered parts are unrelated; each lists some results of a single study.

# Study 1 — method: protein binding microarray; form: double-stranded DNA, one strand shown; matrix: in vitro; concentration: not given; baseline: not given; direction: higher = stronger binding
# Target: Histone acetyltransferase KAT6A, winged helix 2, GST fusion (KAT6A, Homo sapiens, UniProt Q92794, residues 85-181)
# Notes: 8-mer, flanks averaged, mean of 2 arrays, mostly near background
# Construct (chain): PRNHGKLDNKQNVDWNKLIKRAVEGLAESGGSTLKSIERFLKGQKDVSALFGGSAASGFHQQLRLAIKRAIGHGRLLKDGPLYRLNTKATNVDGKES
Oligonucleotide,E-score
CCTCGTAC,-0.199
ATAATGTC,-0.117
CGGCCAAG,0.215

# Study 2 — method: universal PBM; form: double-stranded DNA, one strand shown; matrix: in vitro; concentration: 600 nM; direction: higher = stronger binding
# Target: Sal-like protein 4, full length isoform A (SALL4, Homo sapiens, UniProt Q9UJQ4, residues 1-1053)
# Chain of UniProt Q9UJQ4 (whole entry, looked up): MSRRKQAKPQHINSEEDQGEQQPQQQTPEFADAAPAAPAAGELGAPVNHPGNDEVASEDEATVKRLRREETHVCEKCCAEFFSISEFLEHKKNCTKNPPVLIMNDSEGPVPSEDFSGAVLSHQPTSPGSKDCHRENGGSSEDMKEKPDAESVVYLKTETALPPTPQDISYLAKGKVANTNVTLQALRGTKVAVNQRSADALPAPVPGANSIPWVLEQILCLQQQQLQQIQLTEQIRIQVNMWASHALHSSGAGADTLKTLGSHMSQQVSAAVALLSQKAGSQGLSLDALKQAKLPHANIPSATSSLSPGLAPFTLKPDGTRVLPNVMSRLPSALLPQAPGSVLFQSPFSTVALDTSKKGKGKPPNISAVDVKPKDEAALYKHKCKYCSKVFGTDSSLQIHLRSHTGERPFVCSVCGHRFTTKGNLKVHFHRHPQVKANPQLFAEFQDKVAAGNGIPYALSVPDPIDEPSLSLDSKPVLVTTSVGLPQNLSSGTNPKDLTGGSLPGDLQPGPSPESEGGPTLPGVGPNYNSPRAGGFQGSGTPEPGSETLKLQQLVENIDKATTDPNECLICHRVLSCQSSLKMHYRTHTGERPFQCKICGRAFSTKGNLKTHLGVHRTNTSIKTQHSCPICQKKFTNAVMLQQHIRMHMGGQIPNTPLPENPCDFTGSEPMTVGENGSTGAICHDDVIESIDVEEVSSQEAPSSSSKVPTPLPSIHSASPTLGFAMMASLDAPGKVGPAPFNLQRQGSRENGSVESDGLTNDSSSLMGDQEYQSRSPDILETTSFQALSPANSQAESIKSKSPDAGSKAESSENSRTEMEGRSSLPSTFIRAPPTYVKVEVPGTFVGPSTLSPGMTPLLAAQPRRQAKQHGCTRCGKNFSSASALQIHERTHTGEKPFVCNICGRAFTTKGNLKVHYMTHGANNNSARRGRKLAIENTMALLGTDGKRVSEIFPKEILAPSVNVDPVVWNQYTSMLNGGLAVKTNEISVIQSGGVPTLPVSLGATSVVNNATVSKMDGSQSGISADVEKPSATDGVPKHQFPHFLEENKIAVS
# Notes: 8-mer, flanks averaged, mean of replicates
Oligonucleotide,E-score
CTCTAAAA,0.118
GGAAATAA,0.335
TAGTGTCA,0.13
GAGTTTAC,0.0734
CCCTAGGA,-0.204

# Study 3 — method: protein-binding microarray; form: double-stranded DNA, one strand shown; matrix: in vitro; concentration: 250 nM; notes: 60-bp whole probe; added: salmon DNA 0.4 mg/ml; baseline: random background probes; direction: higher = stronger binding
# Target: Interferon regulatory factor 7, full length, phosphomimetic (IRF7, Homo sapiens, UniProt Q92985, residues 1-503, S101K/S471D/S472D/S475D/S476D/S477D/S483D/S484D/S487D)
# Chain of UniProt Q92985 (whole entry, unmodified, looked up): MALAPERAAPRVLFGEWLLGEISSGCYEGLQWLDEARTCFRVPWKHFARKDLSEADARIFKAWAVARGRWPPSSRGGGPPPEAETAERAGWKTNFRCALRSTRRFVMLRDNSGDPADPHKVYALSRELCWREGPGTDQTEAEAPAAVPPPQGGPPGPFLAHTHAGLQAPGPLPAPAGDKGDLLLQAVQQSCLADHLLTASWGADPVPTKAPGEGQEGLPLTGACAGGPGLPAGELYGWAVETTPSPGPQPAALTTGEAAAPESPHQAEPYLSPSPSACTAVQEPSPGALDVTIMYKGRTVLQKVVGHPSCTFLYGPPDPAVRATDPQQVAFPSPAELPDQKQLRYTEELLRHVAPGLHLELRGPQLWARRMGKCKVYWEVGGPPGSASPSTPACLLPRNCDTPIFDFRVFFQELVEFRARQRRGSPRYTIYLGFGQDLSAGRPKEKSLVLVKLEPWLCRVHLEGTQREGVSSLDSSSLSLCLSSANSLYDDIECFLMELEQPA
Oligonucleotide,log fluorescence [z-score]
GCCTAGCACGAGGATCTCAGTTTCGAGACGTGCTAGGTCTTGATTCGCTTGACGCTGCTG,3.69
GCCTAGCACGACGATATCGGTTTTCGAGACGTGCTAGTCTTGATTCGCTTGACGCTGCTG,1.02
GCCTAGCACTTAGGTATCGGTTTAGGTTAGTGCTAGGTCTTGATTCGCTTGACGCTGCTG,6.05
GCCTAGCACCTCATTCTCTGTTTATGTCTGTGCTAGGTCTTGATTCGCTTGACGCTGCTG,3.13

# Single results of other studies
Substance,target,assay,test system,conditions,how to read,measurement,result
"PhoQ, residues 284 288 289 292 302 303 SVHLDV","PhoP, residues 12 14 15 18 19 LHTVM (Escherichia coli, UniProt P23836)","Sort-seq, item: YFP reporter",E. coli,"PhoQ-PhoP variant library, added: 10 µM Mg2+","baseline: high Mg2+ state, higher = stronger signaling",fold induction,8.66

# Excerpt of the above (study 3):
Oligonucleotide,log fluorescence [z-score]
GCCTAGCACGACGATATCGGTTTTCGAGACGTGCTAGTCTTGATTCGCTTGACGCTGCTG,1.02
